Published values pooled from the literature.
Every numbered part comes from another study and shows a few of its results, in no order.
Sequence of UniProt O14936 (whole entry, looked up): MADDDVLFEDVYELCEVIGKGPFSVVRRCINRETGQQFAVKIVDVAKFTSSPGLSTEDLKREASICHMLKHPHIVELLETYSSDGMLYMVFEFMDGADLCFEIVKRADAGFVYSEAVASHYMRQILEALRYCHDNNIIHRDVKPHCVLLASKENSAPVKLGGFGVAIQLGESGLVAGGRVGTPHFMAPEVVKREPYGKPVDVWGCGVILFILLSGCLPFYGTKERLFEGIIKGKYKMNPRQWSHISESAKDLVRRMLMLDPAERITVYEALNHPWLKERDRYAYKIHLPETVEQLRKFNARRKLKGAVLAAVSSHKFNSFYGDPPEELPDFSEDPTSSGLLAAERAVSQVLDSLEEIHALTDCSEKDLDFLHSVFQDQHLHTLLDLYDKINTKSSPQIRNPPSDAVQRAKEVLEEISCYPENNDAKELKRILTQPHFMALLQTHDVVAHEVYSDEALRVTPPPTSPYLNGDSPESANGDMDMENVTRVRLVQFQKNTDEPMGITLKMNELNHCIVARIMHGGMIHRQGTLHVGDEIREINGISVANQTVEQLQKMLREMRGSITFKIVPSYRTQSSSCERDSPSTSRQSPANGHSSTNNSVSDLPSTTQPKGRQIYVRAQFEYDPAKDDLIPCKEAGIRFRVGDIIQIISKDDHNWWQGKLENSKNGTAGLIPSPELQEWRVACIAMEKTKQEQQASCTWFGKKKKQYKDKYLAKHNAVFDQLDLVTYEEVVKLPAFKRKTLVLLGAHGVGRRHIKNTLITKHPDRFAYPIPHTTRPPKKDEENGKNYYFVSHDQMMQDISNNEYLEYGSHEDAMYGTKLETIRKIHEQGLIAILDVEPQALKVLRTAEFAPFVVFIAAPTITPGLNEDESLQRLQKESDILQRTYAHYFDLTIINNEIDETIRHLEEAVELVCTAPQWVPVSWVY
Sequence of UniProt O60674 (whole entry, looked up): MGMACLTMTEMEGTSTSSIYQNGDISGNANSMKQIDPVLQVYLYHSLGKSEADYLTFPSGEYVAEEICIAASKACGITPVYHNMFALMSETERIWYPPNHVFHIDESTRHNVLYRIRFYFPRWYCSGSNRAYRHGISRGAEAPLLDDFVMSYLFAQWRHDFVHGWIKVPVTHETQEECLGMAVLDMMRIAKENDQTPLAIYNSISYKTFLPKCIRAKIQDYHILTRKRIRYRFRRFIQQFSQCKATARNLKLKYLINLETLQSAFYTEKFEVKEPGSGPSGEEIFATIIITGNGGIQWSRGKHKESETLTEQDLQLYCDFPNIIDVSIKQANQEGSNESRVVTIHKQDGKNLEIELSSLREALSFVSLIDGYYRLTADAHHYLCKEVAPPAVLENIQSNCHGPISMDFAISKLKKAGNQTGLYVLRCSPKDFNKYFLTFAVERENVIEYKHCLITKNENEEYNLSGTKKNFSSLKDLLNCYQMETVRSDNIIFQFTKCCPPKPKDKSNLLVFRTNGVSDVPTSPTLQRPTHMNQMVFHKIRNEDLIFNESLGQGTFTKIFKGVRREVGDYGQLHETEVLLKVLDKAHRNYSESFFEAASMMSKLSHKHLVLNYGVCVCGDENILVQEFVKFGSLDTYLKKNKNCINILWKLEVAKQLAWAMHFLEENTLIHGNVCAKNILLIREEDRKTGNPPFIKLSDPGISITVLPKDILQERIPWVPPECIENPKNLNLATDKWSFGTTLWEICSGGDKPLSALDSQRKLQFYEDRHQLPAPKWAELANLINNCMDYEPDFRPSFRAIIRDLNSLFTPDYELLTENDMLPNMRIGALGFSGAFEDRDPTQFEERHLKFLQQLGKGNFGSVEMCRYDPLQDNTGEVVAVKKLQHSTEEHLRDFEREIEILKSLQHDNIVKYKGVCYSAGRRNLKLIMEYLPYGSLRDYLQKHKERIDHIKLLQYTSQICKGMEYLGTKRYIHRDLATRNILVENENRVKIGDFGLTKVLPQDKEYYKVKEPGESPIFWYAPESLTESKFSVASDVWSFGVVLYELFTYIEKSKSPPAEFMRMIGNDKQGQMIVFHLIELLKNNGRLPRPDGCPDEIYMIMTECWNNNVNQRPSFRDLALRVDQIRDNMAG
Sequence of UniProt P27448 (whole entry, looked up): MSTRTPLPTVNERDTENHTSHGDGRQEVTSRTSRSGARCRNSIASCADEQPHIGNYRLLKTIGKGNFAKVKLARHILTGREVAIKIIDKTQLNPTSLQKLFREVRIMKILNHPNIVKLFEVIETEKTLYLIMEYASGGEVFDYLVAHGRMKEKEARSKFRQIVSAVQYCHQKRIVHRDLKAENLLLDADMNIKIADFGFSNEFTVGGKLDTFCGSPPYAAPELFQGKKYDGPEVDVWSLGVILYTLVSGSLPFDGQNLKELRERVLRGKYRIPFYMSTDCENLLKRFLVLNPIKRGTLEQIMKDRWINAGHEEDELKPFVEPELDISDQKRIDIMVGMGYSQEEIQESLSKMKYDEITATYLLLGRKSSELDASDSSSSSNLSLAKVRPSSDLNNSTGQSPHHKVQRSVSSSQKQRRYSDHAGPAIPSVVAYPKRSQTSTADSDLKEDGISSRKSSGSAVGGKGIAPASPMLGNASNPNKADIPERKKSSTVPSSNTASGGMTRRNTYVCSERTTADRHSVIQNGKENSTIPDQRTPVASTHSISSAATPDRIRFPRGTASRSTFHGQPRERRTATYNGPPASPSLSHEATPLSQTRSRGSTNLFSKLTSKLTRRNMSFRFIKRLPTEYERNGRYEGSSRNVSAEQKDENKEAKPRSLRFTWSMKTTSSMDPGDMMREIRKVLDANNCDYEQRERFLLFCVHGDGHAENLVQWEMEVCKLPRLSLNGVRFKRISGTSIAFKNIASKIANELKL
Sequence of UniProt P35626 (whole entry, looked up): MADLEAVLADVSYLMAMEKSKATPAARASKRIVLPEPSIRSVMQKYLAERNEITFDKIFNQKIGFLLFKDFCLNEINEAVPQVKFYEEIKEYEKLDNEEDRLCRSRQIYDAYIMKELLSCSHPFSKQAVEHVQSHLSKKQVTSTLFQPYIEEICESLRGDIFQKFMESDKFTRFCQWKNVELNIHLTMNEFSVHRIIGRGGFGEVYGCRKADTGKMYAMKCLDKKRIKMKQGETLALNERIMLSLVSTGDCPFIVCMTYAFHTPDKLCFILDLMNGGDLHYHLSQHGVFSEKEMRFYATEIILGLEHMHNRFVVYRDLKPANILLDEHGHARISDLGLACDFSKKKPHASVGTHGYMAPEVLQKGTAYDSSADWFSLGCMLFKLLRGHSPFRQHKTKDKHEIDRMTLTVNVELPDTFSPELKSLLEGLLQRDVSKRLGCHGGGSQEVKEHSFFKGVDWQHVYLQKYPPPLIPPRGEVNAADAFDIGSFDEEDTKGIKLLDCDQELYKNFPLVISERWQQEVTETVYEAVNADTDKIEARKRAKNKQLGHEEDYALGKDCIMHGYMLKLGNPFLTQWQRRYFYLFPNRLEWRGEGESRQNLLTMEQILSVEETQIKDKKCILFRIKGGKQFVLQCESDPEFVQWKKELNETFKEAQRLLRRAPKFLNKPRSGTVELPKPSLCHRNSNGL

Study 1
SMILES: CN([C@@H]1CCc2c(CC(=O)O)c3ccccc3n2C1)S(=O)(=O)c1ccc(F)cc1
Read-out: cell-free assay
Technique: competition with immobilised ligand
Tested at: 1 µM
Quantity: remaining binding
Tyrosine-protein kinase JAK2, JH1 (JAK2, Homo sapiens, UniProt O60674): 100%
MARK3 (Homo sapiens, UniProt P27448): 100%
EGFR (Homo sapiens, UniProt P00533): 95%
GRK3 (Homo sapiens, UniProt P35626): 70%
PIM3 (Homo sapiens, UniProt Q86V86): 100%
CASK (Homo sapiens, UniProt O14936): 66%

Study 2
Target: Protein kinase C epsilon type (PRKCE, Homo sapiens, UniProt Q02156)
Sequence of UniProt Q02156 (whole entry, looked up): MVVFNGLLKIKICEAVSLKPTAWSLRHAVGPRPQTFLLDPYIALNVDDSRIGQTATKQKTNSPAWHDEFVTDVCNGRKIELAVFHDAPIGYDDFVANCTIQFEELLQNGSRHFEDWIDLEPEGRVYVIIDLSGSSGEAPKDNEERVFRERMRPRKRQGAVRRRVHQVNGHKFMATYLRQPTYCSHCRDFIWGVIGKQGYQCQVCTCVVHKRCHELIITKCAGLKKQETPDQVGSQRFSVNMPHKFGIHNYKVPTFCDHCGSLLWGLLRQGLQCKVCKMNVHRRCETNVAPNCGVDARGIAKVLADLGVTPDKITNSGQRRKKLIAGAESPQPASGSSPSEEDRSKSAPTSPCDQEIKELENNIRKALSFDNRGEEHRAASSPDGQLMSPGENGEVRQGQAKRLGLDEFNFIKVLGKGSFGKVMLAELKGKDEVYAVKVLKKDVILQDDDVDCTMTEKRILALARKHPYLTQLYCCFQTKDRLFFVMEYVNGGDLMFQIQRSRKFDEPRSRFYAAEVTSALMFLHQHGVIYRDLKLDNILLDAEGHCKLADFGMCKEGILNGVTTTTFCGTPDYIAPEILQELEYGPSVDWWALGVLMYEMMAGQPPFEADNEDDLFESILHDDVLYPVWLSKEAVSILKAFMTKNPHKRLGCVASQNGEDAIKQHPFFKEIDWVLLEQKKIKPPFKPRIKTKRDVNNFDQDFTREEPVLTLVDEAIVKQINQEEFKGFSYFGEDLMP
Read-out: enzyme activity
Action: inhibitor
Tested at: 0.5 µM
Baseline: control
Quantity: remaining activity
O=C(Nc1cccc(Nc2cc(Nc3cccc(C(F)(F)F)c3)ncn2)c1)C1CC1: 89.2%
CC(C)[C@H](CO)Nc1nc(Nc2cc(N)cc(Cl)c2)c2ncn(C(C)C)c2n1: 105%
NCCNc1ncc(C(N)=O)c(Nc2cccc(C(F)(F)F)c2)n1: 76.5%
O=C(CCCc1ccc(-c2ccccc2F)cc1)Nc1ccc(O)cc1: 103%
COc1cc2nccc(Oc3ccc(NC(=S)NC(=O)c4ccccc4C)cc3)c2cc1OC: 99.7%
COc1ccc(C(=O)Nc2sc3c(c2C(N)=O)CCCC3)cc1OC: 95%
Nc1[nH]nc2nc3ccccc3nc12: 86.4%
O=c1c2ccccc2[nH]c(=S)n1CCN1CCC(=C(c2ccc(F)cc2)c2ccc(F)cc2)CC1: 100%
C#Cc1cccc(Nc2ncnc3cc(OCCOC)c(OCCOC)cc23)c1: 98.5%
O=C1NC(=O)C(c2cn(CCCO)c3ncccc23)=C1c1cnccn1: 102%
Cc1nc(-c2ccccc2)c(-c2ccncc2)o1: 103%
CCOC(=O)c1c(C)[nH]c(/C=C2\C(=O)Nc3ccccc32)c1C: 98.2%
N#CC(C#N)=C(N)/C(C#N)=C/c1ccc(O)cc1: 89.3%
Oc1ccc(-c2nc(-c3ccncc3)c(-c3ccc(F)cc3)[nH]2)cc1: 96%
O=S(=O)(c1cccc2cnccc12)N1CCCNCC1: 76.5%

Study 3
Target: Sal-like protein 4, full length isoform B (SALL4, Homo sapiens, UniProt Q9UJQ4-2, residues 1-616)
Technique: universal PBM
Form: double-stranded DNA, one strand shown
Medium: in vitro
Tested at: not given
Notes: 8-mer, flanks averaged, mean of replicates
Direction: higher = stronger binding
Quantity: E-score
Construct (chain): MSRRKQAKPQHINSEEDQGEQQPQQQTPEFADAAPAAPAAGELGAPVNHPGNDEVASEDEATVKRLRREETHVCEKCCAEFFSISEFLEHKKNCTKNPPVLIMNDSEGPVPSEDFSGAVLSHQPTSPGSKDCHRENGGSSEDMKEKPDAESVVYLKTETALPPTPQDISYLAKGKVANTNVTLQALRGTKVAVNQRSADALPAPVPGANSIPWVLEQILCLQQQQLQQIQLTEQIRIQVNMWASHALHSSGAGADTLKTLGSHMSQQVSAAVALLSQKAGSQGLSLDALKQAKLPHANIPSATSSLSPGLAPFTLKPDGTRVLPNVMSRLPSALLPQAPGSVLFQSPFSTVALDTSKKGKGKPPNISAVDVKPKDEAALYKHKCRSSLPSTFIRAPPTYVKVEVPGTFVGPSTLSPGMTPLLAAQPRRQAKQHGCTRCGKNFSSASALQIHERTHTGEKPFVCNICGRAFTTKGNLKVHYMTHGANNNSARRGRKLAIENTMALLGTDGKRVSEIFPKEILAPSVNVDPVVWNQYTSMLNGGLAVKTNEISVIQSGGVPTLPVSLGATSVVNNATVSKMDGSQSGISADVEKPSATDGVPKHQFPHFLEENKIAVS
ACCGACCA: -0.221
CCCAGTAC: -0.147
ACTCTTGA: -0.0153
GTTTTTGA: 0.231
AGGCGGGC: -0.239
AGATCCAG: -0.192
GCGGGAAC: -0.369
GAGAAGTA: 0.0926

Single results of other studies
SYNCRIP (Homo sapiens, UniProt O60506)
interaction screen (HNRNPC (Homo sapiens, UniProt P07910); cross-linking MS; hits only): cross-linked

A few entries again (study 2):
CCOC(=O)c1c(C)[nH]c(/C=C2\C(=O)Nc3ccccc32)c1C: 98.2%
N#CC(C#N)=C(N)/C(C#N)=C/c1ccc(O)cc1: 89.3%
Oc1ccc(-c2nc(-c3ccncc3)c(-c3ccc(F)cc3)[nH]2)cc1: 96%
O=S(=O)(c1cccc2cnccc12)N1CCCNCC1: 76.5%
